{"data": "Experimental data gathered from unrelated publications", "note": "Numbered parts are unrelated; each lists some results of a single study.", "sequence of UniProt Q9Y4K4 (whole entry, looked up)": "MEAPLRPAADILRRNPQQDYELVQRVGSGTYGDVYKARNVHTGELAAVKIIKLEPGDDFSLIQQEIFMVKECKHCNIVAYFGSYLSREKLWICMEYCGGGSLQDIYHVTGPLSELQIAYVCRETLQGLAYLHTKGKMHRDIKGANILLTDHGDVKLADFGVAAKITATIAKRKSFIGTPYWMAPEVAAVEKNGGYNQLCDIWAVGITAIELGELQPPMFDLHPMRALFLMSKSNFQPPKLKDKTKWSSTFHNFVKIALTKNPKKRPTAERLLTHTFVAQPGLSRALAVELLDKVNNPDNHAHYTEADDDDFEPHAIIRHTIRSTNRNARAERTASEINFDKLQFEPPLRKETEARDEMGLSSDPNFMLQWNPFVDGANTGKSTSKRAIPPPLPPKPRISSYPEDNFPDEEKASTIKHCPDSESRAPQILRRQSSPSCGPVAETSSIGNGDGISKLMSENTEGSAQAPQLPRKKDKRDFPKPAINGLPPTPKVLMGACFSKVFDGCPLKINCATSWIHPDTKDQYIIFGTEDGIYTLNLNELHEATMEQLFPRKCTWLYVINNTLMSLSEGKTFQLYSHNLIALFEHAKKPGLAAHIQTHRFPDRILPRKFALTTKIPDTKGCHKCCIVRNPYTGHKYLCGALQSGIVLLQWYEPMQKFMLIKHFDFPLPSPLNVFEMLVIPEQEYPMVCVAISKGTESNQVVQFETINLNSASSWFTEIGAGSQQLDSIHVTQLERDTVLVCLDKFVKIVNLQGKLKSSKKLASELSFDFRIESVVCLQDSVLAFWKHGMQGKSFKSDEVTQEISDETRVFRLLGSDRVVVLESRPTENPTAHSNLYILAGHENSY"}
{"data": "Study 1", "target": "Centromere-binding protein 1, full length, N-terminal tag (CBF1, Saccharomyces cerevisiae, UniProt P17106, residues 1-351)", "method": "protein-binding microarray", "molecule type": "double-stranded DNA, one strand shown", "sample": "in vitro", "tested at": "0.8 µM", "notes": "whole 60-bp probe, no competitor", "reading": "higher = stronger binding", "sequence of UniProt P17106 (whole entry, looked up)": "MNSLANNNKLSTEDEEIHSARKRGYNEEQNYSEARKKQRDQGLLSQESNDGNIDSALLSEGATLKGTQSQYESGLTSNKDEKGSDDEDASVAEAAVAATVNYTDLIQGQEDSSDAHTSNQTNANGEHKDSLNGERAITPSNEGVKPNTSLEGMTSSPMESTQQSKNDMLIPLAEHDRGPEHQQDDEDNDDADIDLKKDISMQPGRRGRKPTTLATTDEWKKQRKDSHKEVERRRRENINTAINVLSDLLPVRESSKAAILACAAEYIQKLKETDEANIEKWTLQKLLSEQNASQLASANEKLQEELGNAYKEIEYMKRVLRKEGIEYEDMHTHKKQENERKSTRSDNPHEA"}
{"Strand": "GAATGAAAGGCCAATCATCTGATTTTCAATGGATAGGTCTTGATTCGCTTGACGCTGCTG", "fluorescence intensity [a.u.]": 706}
{"Strand": "CTATGAGTAGGATCCAACGTGCCAAAGAATTTATTCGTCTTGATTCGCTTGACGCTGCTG", "fluorescence intensity [a.u.]": 613}
{"Strand": "TGTACGAAGCTATGTCACGTGGTTATAGTAGTTAGGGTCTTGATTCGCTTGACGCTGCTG", "fluorescence intensity [a.u.]": 14600}
{"Strand": "CTATGAGCAGAAGTTGATGTTACCTAGATGTGATTCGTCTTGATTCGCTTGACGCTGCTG", "fluorescence intensity [a.u.]": 526}
{"Strand": "CTAAAAAGGACTGCGCAGGTGAGGGTTTTTACGTTCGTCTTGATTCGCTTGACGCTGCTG", "fluorescence intensity [a.u.]": 555}
{"Strand": "GAAAAACAGGGTATAGACGTGATGTCAGCTTAATAGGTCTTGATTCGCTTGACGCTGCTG", "fluorescence intensity [a.u.]": 565}
{"Strand": "CTAGTAAAAACCTCTCACATGTTTTTCTCTGCTTTCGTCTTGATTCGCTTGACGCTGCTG", "fluorescence intensity [a.u.]": 786}
{"Strand": "CTATAATCCATACGTGGTCGTGCTTTACTGAATTTCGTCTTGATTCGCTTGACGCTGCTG", "fluorescence intensity [a.u.]": 543}
{"data": "Study 2", "target": "RNA binding protein fox-1 homolog 2, RRM domain, GST-SBP tag (RBFOX2, Homo sapiens, UniProt O43251-10, residues 100-194)", "method": "RNA Bind-n-Seq", "molecule type": "RNA", "sample": "in vitro", "tested at": "365 nM", "notes": "natural RNA segment, single round, ends assumed", "reference": "no-protein control", "reading": "higher = stronger binding", "Construct (chain)": "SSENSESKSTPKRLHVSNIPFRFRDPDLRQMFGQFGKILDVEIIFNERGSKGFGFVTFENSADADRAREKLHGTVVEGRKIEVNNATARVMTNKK"}
{"Strand": "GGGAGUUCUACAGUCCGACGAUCUCUGGAAAGAGGCCUCCCUCCCUCCCUUUGUGGAGCCGUCAGUCAUCCCCAAGAUGAGAGGCGAGCAUCCUGCCGAGUGAGCCUGCAGCAACAGCUCCUGAGGAAGGUGCUGGAAUUCUCGGGUGCCAA", "RBNS enrichment (R)": 0.498}
{"Strand": "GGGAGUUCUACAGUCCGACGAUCGAAGAACCUGGCGAAGGAGAAGCUGGCAGUGUGAAGCGGAUGACGCCUGACAUUUUACGGGAUCAAAGUGGGUCUGUGGCAUUGCUGCUUCGUGAAUGUGUGUGGACUCUUGGAAUUCUCGGGUGCCAA", "RBNS enrichment (R)": 4.1}
{"Strand": "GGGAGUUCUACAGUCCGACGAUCGUAUGGAGCAUUUUCACUUCUAAAUAGUUAGAUACAGAAAUUAAGUGCAUUGUAUCUUUUUCAUAAUGGUACUAUUUAGAAGCCCAGUUAGUCUUACUGAGCUUAUGCUUUGGAAUUCUCGGGUGCCAA", "RBNS enrichment (R)": 1.11}
{"Strand": "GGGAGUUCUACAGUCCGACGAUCAAUUGGGAAGUGCCUAGAGUCCAGGCCCCGAUCAUCAAAGAUGUCUAUAUUGUAUAAUAUUUAAAGUUAUUUUUAAUUUUCUCAAACAAUAUGAGAAUAUCUAUCUGGCAUGGAAUUCUCGGGUGCCAA", "RBNS enrichment (R)": 0.651}
{"Strand": "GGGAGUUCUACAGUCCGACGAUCAGCCCUAAAUAAAUCUAAAGUCUAAAGUUUUAUUGAUGUGAAAUUAAAUUCUUAUUGGCCAAAUGCCUGUUUUGAUGAGUUGAUUUAUAAAGAUUUUUGUUAAGCUCAGGUGGAAUUCUCGGGUGCCAA", "RBNS enrichment (R)": 0.782}
{"Strand": "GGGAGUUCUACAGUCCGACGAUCAGUCACCUGGUUCCCACUACUGUCGUAGCAGAUAGCGAAGGGACAAUCUGAGACUUGUAGAGAUGAUUUAAUGAGAAGCACAAUUUUUAUUGUGACCAGUCACGUUCUAUUGGAAUUCUCGGGUGCCAA", "RBNS enrichment (R)": 0.327}
{"Strand": "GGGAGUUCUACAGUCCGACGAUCGUCUUGAUGGCAAAAUAAUUAUGGUAAAAAACAAGUCUCGUGUUUAUUAUUCCUUAAGAACUCUGUGUUAUAUUACCAUGGAACGCCUAAUAAAGCAAAAUGUGGUUGUUUGGAAUUCUCGGGUGCCAA", "RBNS enrichment (R)": 0.746}
{"Strand": "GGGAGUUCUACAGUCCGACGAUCAAUGUAUCUCAAAUUUUUAAAUAGAAGAGUAAUAAACAGACUUUAAAGCAAAUAUUAAGAUUUUUACUCAUUCAAGGCAAGUAAAUGAAUGGAAUUAUCUGAGCUCUAUGUGGAAUUCUCGGGUGCCAA", "RBNS enrichment (R)": 0.758}
{"data": "Mixed results"}
{"Molecule": "PhoQ, residues 284 288 289 292 302 303 SVHLDV", "target": "PhoP, residues 12 14 15 18 19 NHTVL (Escherichia coli, UniProt P23836)", "test": "Sort-seq, refers to: YFP reporter", "test system": "E. coli", "conditions": "PhoQ-PhoP variant library, together with: 10 µM Mg2+", "scale": "reference: high Mg2+ state, higher = stronger signaling", "endpoint": "fold induction", "result": 13.8}
{"Molecule": "CCN(CC)C(=O)c1ccc(Nc2nc(OCC3CCCCC3)c3[nH]cnc3n2)cc1", "target": "Mitogen-activated protein kinase kinase kinase kinase 5 (MAP4K5, Homo sapiens, UniProt Q9Y4K4)", "test": "enzyme activity, inhibitor", "conditions": "0.5 µM", "scale": "reference: control", "endpoint": "remaining activity", "result": "78%"}
{"note": "For quick reference, copied from above (study 1):"}
{"Strand": "TGTACGAAGCTATGTCACGTGGTTATAGTAGTTAGGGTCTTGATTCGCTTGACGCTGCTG", "fluorescence intensity [a.u.]": 14600}
